Results pooled from the literature.
Each numbered part is a random draw from the data of one study; scales do not carry over between parts. Substitutions count along the parent as printed.

Sample 1
Target: CCNB2, cyclin fold, Cln2 fusion (human)
Technique: yeast growth competition, sequencing
Matrix: yeast
Setting: weak parent motif
Relative to: not given
Reading: higher = stronger binding
Starting sequence: CDC6 docking peptide (human); TLKGRRLVFDNQL
| Change | normalised enrichment score |
| --- | --- |
| Q12G | 0.762 |
| N11M | 0.0289 |
| L13N | 0.104 |
| N11H | 0.274 |
| R6V | 0.44 |
| L13T | -0.104 |

Sample 2
Target: RING finger protein unkempt homolog, zinc fingers 1-6, GST-SBP tag (UNK, Homo sapiens, UniProt Q9C0B0, residues 30-357)
Technique: RNA Bind-n-Seq
Form: RNA
Matrix: in vitro
Tested at: not given
Setting: RNA with constant flanks, human and mouse sites, ends assumed
Relative to: input RNA pool
Reading: higher = stronger binding
Shared flanks, not repeated: GGGAGUUCUACAGUCCGACGAUC … CAACAGAGGAUUGAGCAUCA
Target sequence (chain): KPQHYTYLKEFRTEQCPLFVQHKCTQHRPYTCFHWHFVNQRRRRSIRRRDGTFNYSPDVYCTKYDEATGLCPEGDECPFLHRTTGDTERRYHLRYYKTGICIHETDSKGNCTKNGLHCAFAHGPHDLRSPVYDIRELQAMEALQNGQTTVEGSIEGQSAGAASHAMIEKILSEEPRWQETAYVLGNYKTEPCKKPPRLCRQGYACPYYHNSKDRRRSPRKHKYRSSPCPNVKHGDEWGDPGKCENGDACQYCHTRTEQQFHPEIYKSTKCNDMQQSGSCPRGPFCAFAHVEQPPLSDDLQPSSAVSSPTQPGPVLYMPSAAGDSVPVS
| Sequence | bound/input enrichment |
| --- | --- |
| GUUCGAUUACUCUACGCAAAGCGACCAGGAAUUGGACUGUCUCCGUCUCACAGGAGGUACUUAGGCUACAUGUGCGACCUACUUGCAGAUAAGCCCUACCGCCCUCACUUCAAGCCACUC | 0.0709 ratio |
| ACACCUAGUGACCGUUCCAGAUACAGGUUAGAUUUGGAAGGAAAUGAGUAUCCUGUUCAUAGCACUCCAAAUUGUCACGAUCAUGAACGUAACCAUAAAGUGCCUCCACCUAUUAAACCU | 0.247 ratio |
| GAUCAGAUUUCAACCUGGGACUGGAUUACAGAGGAUUGUUUCUAAUAACAACAUCAAUAUUCUAGAAGUCCCUGACAGCCUAGAAAUAAGCUGUUUGUCUUCUAUAAAGCAUUGCUAUAG | 0.123 ratio |
| ACAGAAUGGAGCUAUGGACGUUAAUUUGACCGUCUACUCCAAUCCCCGCCAAGAGACUGGCAUAGCUGGACAUCCAACAUACCAAUUUUCUGCUAAUACAGGUCCUGCACAUUACAUGAC | 0.141 ratio |
| CAUCACCGGGUGGGCGAGAUGGCUCCACCCAAUGCCUACACUGUCACCGACUUGGUGGAGUAUAGCAUCAUCAUAGAACAGCUCUCCAAUGGCAAGUGGGUCCCCUUUGAUGGUGAUGAC | 0.611 ratio |
| GAGUCGGAUGUUGAGGCUCAGCAGUCUCAUGGCAGCAGUGCCUGUUCACAGCCCCAUGGCAGCGUUACCCAGUCCCAAGGCUCCUCCUCACAGUCCCAGGGCAUAUCCAGCUCCUCUACC | 0.106 ratio |
| GAAAUAAAUGUGGAAGCUAAGCAAGUUAAGGAUAUCAUGAAAACACUCGAGAGCUUCAAACUAGACAUCACUUCUUUGCAAGCUGCACAACAUGAAUUUCCAGCUGCUGAAGGAGAAGUC | 0.387 ratio |

Sample 3
Target: Histone acetyltransferase KAT6A, both winged helices, GST fusion (KAT6A, Homo sapiens, UniProt Q92794, residues 1-181)
Technique: protein binding microarray
Form: double-stranded DNA, one strand shown
Matrix: in vitro
Tested at: not given
Setting: 8-mer, flanks averaged, mean of 2 arrays, mostly near background
Relative to: not given
Reading: higher = stronger binding
Construct (chain): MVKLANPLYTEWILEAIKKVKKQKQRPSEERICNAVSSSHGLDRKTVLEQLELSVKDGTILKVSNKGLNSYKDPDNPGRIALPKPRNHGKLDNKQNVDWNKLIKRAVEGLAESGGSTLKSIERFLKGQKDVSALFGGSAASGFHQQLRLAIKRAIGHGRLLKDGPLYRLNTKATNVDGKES
| Sequence | E-score |
| --- | --- |
| GCAGGCTA | -0.0962 |
| GTACCCCA | -0.0905 |
| AAAAATCA | -0.0501 |
| AGTTTATG | -0.137 |
| GCCAGGAC | -0.0396 |
| ACGTGCAC | 0.0285 |
| ATAACCCC | -0.0899 |

Other studies, line by line
| Substance | target | test | system | setting | how to read | measurement | result |
| --- | --- | --- | --- | --- | --- | --- | --- |
| PhoQ, residues 284 288 289 292 302 303 SCEHLI | PhoP, residues 12 14 15 18 19 LWHCS (Escherichia coli, UniProt P23836) | Sort-seq, refers to: YFP reporter | E. coli | PhoQ-PhoP variant library, together with: 10 µM Mg2+ | relative to: high Mg2+ state, higher = stronger signaling | fold induction | 13.4 |
